# Published values from different studies.
# Protocols differ between the studies behind these lines. Numbers after ± are the reported error.
SMILES,test system,setting,how to read,Cmax
CC(C)NC[C@@H](C(=O)N1CCN(c2ncnc3c2[C@H](C)C[C@H]3O)CC1)c1ccc(Cl)cc1,"human, matched normal hepatic function (Child-Pugh), plasma","oral, 100 mg single, reference geometric mean, vs Severe",,48.9 ng/mL
Nc1ncc(-c2cnn(CCO)c2)c2scc(-c3ccc(NC(=O)Nc4cccc(F)c4)cc3)c12,"human, plasma","oral, 10 mg, patients",,37 ng/mL
Cc1nc2cccc(OCC(C)(C)C(=O)NC(C)C)c2c(N)c1C(=O)O,"male Sprague-Dawley rat, plasma","dietary, 60 mg/kg/day, day 90",,146 ng/mL
CCCOc1ccc([C@H]2CNC(=O)N2c2ccc3[nH]cnc3c2)cc1,"human, plasma","oral, 300 mg, multiple doses, twice daily, fasted",,2060 ng/mL
Cn1c(C(F)(F)F)cc(=O)n(-c2cc(Oc3cccnc3OCC(=O)O)c(Cl)cc2F)c1=O,"beagle dog, female, plasma","oral capsule, 100 mg/kg/day epyrifenacil, week 13, 90-day study",,1920 ng/mL
O=C(CCCCCCC(=O)Nc1ccccc1)NO,"patients, serum","oral, 400 mg, cycle 1 day 2, together with: flavopiridol 30+30 mg/m2",,2110 nM
CNCc1ccc(-c2[nH]c3cc(F)cc4c3c2CCNC4=O)cc1,"human patients, plasma","oral, 80 mg once daily, day 15, steady state, arithmetic mean",,175 ng/mL
CN(C(=O)c1ccn2ncc(-c3ccc(C(N)=O)cc3)c2c1)c1ccc(C#N)cn1,"female C57BL/6 mouse, plasma","oral, 10 mg/kg",,659 nM
CC1=C2C[C@H]3[C@@H](CC[C@@H]4C[C@H](NS(C)(=O)=O)CC[C@@]43C)[C@@H]2CC[C@@]2(C1)O[C@@H]1C[C@H](C)CN[C@H]1[C@H]2C,"patients, plasma","oral, 20 mg single, day -7, cycle 1",,6.66 ng/mL
CC(C)[C@H](N)C(=O)NCCCS(=O)(=O)O,"human, both sexes, plasma","oral, 100 mg capsule",,3650 ± 1440 ng/mL
O=c1[nH]c(=O)c(Cc2cccc(C(F)(F)F)c2)c([C@H]2CC[C@H](c3ccccc3)CC2)[nH]1,"human, plasma","oral, 900 mg once daily, day 7, geometric mean",,740 ng/mL
Cc1cc(Nc2cc3ncccc3c(N[C@@H]3C[C@H]4CC[C@@H](C3)N4CCC#N)n2)n[nH]1,"beagle dog, male, plasma","oral, 100 mg/kg/day, week 28 day 197, 39-week repeat dose",mean,304 ng/mL
CCCC[C@H](NC(C)=O)C(=O)N[C@H]1CCC(=O)NC[C@@H](C(=O)N[C@@H](Cc2c[nH]c3ccccc23)C(N)=O)NC(=O)[C@H](CCCNC(=N)N)NC(=O)[C@@H](Cc2ccccc2)NC(=O)[C@H](Cc2c[nH]cn2)NC1=O,"CD Sprague-Dawley rat, male, plasma","subcutaneous, 1.0 mg/kg/day, day 1",,525 ng/mL
CCCCCN1C[C@H](O)[C@@H](O)[C@H](O)[C@@H]1CO,"male human, plasma","oral, 30 mg, single dose, fasted, healthy volunteers",,311 ng/mL
COc1cccc(-c2n[nH]c(SCc3ccccn3)n2)c1OC,"Sprague-Dawley rat, both sexes, plasma","oral, diet, 100 mg/kg/day, day 90",,10400 ng/mL
CS(=O)(=O)Nc1ccc(C(=O)O[C@@H](Cc2c(Cl)c[n+]([O-])cc2Cl)c2ccc(OC(F)F)c(OCC3CC3)c2)cc1OCC1CC1,"human, plasma","inhaled, 1200 µg once daily, day 1, single-dose dry powder inhaler",,0.628 ng/mL
CO[C@H]1C[C@@H]2CC[C@@H](C)[C@@](O)(O2)C(=O)C(=O)N2CCCC[C@H]2C(=O)O[C@H]([C@H](C)C[C@@H]2CC[C@@H](O)[C@H](OC)C2)CC(=O)[C@H](C)/C=C(\C)[C@@H](O)[C@@H](OC)C(=O)[C@H](C)C[C@H](C)/C=C/C=C/C=C/1C,"human, whole blood","oral, 35 mg, without grapefruit juice",,68.1 ng/mL
COc1cccc(CN)c1O,"male C57BL/6 mouse, heart","intraperitoneal, 200 mg/kg, single dose",,600000 ng/g
O=C1N=C(N2CCOCC2)CN1c1ccc(Cl)cc1,"beagle dog, both sexes, plasma","oral, 30 mg/kg twice daily, day 5, tablets, after 4 days dosing",,14900 ng/mL
Nc1ccc(-c2nc([C@H]3CCc4cc(-c5cc(Cl)ccc5-n5cnnn5)cc(=O)n43)c(F)[nH]2)c(F)n1,"human, plasma","oral, 1 mg, single dose, fasted",,6.77 ng/mL

# Excerpt of the above:
SMILES,test system,setting,how to read,Cmax
COc1cccc(CN)c1O,"male C57BL/6 mouse, heart","intraperitoneal, 200 mg/kg, single dose",,600000 ng/g
